Measured values collected from several papers.
Parts stem from different laboratories: compare values within a part only.

Series 1 — technique: protein-binding microarray; molecule type: double-stranded DNA, one strand shown; medium: in vitro; tested at: 2540 nM top; setting: 60-bp whole probe; added: salmon DNA 0.4 mg/ml; reference: random background probes; reading: higher = stronger binding; measurement: fitted relative affinity; all sequences stand within: GCCTAGCAC … GTCTTGATTCGCTTGACGCTGCTG
Target: Interferon regulatory factor 3, full length, phosphomimetic (IRF3, Homo sapiens, UniProt Q14653, residues 1-427, S386D/S396D/S398D/S402D/T404D/S405D)
Construct (chain): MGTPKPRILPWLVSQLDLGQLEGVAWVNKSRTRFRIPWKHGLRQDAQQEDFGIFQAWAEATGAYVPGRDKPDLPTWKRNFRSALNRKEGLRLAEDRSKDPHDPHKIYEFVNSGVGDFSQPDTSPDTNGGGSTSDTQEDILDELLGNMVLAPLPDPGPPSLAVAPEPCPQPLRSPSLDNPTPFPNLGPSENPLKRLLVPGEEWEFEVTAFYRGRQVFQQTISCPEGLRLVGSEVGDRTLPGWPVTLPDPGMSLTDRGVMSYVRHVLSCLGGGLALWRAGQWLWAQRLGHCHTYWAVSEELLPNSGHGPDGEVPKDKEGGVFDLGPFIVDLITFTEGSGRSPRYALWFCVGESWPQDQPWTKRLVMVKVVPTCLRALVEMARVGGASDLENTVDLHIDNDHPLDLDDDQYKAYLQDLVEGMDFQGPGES
TCATCTCTCTTTCCACTACTGTGCTAG: 2.1 z-score
TTAGTTTTCGGGACTGGATTAGTGCTA: 2 z-score
TTAGGTTTCCTTTTCCTTGAGTGCTAG: 11.4 z-score
GACGAACTGAGAATGGAGACGTGCTAG: 0.149 z-score
GACGGACTGGGTATCGGCACGTGCTAG: -0.434 z-score
AATCATTCACCTGTCGTTGAGTGCTAG: 0.48 z-score
TTAGAACCGAGTCTCGATTAGTGCTAG: 0.0624 z-score
GACGATTTCAGTTCAGAGACGTGCTAG: 2.39 z-score
TTAGAACTAGGGTATCGATTAGTGCTA: -0.257 z-score
GACGATCTCAGTATCGAGAGGTGCTAG: 0.66 z-score
CTGTTCTGCAGACTTCTGTCGTGCTAG: 1.22 z-score
TTAGGTATTCTACTGCTTTAGTGCTAG: -0.247 z-score

Series 2 — technique: protein-binding microarray; molecule type: double-stranded DNA, one strand shown; medium: in vitro; tested at: 0.8 µM; setting: whole 60-bp probe, no competitor; reading: higher = stronger binding; measurement: fluorescence intensity
Target: Centromere-binding protein 1, full length, N-terminal tag (CBF1, Saccharomyces cerevisiae, UniProt P17106, residues 1-351)
UniProt P17106, sequence (whole entry, looked up): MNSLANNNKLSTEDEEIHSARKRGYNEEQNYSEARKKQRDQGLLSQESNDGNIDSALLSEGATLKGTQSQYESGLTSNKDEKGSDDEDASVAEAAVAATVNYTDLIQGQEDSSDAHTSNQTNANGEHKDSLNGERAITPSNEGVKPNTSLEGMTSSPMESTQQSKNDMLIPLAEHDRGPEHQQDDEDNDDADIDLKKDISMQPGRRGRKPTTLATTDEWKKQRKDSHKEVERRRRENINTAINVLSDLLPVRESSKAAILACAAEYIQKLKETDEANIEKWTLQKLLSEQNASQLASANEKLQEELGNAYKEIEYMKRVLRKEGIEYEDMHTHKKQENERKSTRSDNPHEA
GAAATGTGACAAGAGGTGGTGACATAAAAATAATAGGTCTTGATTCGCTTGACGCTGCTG: 694 a.u.
GAATGCGATTCTTTTCGCATGCACTCAATTGGATAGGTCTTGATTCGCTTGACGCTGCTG: 506 a.u.
TGTACGAAGCTATATCATGCCGTTATAGTAGTTAGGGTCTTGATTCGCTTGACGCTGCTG: 517 a.u.
GAACAAAGCTCTTAAGTCGTGATCTTCTCTTCTTAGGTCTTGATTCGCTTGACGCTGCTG: 600 a.u.
GAAAGAGCCACACGGCACGCCGGGGTAGCTGTTTAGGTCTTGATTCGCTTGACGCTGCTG: 465 a.u.
GAACTCTTTTCACTGCTCGTGCCGCTGCAACGCTAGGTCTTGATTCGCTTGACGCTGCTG: 707 a.u.

Series 3 — technique: protein-binding microarray; molecule type: double-stranded DNA, one strand shown; medium: in vitro; tested at: not given; reading: higher = stronger binding; measurement: E-score
Target: Protein C-ets-1 (ETS1, Homo sapiens, UniProt P14921, residues 1-441, Y397A, full length assumed)
Setting: k-mer, scored over probes, only values ≥0.25
Target sequence (chain): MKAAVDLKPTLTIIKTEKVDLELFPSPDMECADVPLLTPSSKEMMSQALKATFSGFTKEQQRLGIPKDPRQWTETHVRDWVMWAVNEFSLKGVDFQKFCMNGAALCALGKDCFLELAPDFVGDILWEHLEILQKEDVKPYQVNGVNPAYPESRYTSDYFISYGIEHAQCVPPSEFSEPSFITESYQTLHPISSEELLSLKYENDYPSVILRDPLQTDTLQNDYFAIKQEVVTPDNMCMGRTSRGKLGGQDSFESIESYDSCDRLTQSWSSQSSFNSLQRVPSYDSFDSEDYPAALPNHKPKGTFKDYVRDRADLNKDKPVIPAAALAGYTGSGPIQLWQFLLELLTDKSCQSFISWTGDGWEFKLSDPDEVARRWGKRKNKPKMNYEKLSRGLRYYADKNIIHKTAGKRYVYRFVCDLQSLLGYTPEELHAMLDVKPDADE
CAGCGGCA: 0.25
GACTGACA: 0.287
CATTTGGC: 0.253
ATGTCAAA: 0.301

Further values, each from its own experiment
PhoQ, residues 284 288 289 292 302 303 TNASYF
fold induction (PhoP, residues 12 14 15 18 19 NHTVL (Escherichia coli, UniProt P23836); Sort-seq, item: YFP reporter; E. coli; PhoQ-PhoP variant library, added: 10 µM Mg2+; reference: high Mg2+ state, higher = stronger signaling): 8.74

LQVDDDSGDPLNLVKA
enrichment score (Saccharomyces cerevisiae; yeast growth, competitive growth deep sequencing; peptide, unfused Cln2; peptide tiling library; direction not given): 0.0471

Excerpt of the above (series 3):
CAGCGGCA: 0.25
GACTGACA: 0.287
